Experimental data collected from several papers.
Lines come from different studies, so protocols differ. ± gives the spread as reported.
pyrD: Dihydroorotate dehydrogenase (quinone) (pyrD, Acinetobacter baumannii, UniProt B7GZW7)
UniProt B7GZW7, sequence (whole entry, looked up): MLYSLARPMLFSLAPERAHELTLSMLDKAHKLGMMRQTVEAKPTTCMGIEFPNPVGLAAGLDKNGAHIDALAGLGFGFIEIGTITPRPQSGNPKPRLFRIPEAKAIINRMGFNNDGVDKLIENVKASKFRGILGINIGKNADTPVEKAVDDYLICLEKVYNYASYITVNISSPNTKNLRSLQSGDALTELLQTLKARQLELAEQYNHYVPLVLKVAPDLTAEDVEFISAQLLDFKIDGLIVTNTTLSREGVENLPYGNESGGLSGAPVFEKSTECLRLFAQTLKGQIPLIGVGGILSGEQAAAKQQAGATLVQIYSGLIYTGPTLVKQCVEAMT
SOD1 fully metallated: Superoxide dismutase [Cu-Zn], fully metallated (SOD1, Homo sapiens, UniProt P00441)
UniProt P00441, sequence (whole entry, looked up): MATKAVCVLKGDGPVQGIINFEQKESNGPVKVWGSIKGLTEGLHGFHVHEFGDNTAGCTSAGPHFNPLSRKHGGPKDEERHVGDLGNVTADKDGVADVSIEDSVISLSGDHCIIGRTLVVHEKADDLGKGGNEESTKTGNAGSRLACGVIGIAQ
PADI4: Protein-arginine deiminase type-4 (PADI4, Homo sapiens, UniProt Q9UM07)
UniProt Q9UM07, sequence (whole entry, looked up): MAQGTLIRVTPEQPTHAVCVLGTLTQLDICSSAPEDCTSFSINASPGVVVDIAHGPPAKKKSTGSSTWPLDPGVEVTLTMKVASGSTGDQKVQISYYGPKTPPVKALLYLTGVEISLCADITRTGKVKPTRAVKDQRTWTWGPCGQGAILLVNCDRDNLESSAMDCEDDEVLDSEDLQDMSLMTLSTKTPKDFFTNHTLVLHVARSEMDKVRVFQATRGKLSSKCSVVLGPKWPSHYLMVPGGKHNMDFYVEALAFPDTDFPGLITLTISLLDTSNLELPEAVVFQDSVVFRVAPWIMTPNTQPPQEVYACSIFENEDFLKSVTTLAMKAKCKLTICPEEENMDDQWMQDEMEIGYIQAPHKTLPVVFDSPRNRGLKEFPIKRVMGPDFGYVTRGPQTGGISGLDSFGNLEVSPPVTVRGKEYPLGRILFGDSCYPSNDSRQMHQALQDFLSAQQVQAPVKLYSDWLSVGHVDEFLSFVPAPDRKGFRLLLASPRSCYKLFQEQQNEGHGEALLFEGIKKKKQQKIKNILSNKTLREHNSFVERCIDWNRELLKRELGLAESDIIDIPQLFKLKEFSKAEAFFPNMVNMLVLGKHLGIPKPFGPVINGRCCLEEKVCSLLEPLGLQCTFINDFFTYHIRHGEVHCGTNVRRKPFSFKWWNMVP
Proteasome subunit beta type-9: Proteasome subunit beta type-9 (Homo sapiens, UniProt P28065)
UniProt P28065, sequence (whole entry, looked up): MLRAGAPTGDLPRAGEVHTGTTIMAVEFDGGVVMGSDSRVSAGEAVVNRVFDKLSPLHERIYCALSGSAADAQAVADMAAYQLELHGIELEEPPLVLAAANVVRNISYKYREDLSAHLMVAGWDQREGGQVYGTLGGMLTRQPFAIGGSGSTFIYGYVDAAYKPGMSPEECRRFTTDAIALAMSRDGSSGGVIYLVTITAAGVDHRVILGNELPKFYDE
P2RX4: P2X purinoceptor 4 (P2RX4, Homo sapiens, UniProt Q99571)
UniProt Q99571, sequence (whole entry, looked up): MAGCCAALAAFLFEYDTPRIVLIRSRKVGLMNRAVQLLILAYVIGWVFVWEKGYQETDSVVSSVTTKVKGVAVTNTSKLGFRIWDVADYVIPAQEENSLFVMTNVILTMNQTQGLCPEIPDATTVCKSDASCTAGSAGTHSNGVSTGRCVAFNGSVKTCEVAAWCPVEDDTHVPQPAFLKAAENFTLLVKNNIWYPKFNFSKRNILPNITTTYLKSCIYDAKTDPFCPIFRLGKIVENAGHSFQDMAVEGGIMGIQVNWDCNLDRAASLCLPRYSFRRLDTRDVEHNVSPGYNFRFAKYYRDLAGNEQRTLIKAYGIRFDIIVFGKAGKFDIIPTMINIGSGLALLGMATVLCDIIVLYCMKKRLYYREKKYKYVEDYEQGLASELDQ
Probable G-protein coupled receptor 34: Probable G-protein coupled receptor 34 (Homo sapiens, UniProt Q9UPC5)
UniProt Q9UPC5, sequence (whole entry, looked up): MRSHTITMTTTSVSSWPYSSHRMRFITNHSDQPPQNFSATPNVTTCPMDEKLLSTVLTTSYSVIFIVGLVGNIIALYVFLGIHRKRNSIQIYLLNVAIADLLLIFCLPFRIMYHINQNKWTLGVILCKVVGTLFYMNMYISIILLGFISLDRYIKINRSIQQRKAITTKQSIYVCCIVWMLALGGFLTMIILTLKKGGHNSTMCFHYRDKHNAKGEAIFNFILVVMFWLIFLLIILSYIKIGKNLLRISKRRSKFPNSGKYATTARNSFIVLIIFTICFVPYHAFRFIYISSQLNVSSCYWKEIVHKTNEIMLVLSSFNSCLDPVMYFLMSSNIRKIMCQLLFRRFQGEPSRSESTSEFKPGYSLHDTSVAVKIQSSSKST
UniProt Q8TDW0, sequence (whole entry, unmodified, looked up): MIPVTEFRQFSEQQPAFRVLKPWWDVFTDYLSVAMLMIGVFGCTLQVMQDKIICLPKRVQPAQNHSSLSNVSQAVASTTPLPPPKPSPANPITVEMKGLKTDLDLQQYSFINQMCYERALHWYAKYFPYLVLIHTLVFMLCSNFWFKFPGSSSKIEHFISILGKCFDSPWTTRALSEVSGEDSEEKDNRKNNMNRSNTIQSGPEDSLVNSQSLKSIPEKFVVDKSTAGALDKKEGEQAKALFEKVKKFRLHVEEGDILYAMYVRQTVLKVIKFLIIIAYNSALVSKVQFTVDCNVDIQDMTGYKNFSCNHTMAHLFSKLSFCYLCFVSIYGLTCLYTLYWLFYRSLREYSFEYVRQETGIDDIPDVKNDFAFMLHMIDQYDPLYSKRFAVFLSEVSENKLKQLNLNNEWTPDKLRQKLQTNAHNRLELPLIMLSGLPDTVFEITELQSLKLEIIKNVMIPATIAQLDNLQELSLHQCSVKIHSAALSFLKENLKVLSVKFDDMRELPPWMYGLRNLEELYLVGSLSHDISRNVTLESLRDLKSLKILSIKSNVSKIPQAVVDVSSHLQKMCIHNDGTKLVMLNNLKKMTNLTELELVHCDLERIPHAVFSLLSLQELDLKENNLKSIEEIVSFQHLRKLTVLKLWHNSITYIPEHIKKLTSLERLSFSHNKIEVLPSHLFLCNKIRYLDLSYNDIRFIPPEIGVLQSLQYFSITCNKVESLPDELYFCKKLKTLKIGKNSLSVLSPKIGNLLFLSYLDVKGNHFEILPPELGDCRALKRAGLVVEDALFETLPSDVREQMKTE
UniProt Q16678, sequence (whole entry, looked up): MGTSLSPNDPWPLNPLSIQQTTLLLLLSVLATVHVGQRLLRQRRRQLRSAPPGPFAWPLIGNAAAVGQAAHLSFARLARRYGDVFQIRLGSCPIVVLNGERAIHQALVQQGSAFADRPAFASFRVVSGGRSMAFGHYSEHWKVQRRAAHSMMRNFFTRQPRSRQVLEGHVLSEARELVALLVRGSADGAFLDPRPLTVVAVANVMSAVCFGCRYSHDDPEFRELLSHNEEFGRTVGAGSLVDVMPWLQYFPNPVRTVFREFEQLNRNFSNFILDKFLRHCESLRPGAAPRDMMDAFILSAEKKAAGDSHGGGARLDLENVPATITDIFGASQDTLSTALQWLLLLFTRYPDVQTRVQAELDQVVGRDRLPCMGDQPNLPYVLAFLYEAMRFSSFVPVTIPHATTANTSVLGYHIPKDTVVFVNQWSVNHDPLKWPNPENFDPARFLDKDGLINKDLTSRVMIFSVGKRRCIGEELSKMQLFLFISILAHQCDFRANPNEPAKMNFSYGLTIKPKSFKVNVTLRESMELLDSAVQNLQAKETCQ
UniProt Q9NSA0, sequence (whole entry, looked up): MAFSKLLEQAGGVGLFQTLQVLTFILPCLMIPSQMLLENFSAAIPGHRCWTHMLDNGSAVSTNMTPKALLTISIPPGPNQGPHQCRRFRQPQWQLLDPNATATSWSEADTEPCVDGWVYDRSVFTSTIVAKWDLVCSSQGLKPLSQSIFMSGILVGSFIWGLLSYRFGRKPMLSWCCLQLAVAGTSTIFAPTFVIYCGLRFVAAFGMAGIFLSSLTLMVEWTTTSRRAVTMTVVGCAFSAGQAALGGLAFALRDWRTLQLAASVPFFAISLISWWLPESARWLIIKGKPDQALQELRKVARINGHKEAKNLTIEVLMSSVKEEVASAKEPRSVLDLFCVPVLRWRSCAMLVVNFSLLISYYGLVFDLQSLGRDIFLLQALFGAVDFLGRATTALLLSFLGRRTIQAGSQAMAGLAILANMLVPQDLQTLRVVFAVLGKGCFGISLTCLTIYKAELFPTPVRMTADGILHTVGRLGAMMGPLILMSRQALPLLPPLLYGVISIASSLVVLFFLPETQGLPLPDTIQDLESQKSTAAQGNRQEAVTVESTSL
UniProt O94782, sequence (whole entry, looked up): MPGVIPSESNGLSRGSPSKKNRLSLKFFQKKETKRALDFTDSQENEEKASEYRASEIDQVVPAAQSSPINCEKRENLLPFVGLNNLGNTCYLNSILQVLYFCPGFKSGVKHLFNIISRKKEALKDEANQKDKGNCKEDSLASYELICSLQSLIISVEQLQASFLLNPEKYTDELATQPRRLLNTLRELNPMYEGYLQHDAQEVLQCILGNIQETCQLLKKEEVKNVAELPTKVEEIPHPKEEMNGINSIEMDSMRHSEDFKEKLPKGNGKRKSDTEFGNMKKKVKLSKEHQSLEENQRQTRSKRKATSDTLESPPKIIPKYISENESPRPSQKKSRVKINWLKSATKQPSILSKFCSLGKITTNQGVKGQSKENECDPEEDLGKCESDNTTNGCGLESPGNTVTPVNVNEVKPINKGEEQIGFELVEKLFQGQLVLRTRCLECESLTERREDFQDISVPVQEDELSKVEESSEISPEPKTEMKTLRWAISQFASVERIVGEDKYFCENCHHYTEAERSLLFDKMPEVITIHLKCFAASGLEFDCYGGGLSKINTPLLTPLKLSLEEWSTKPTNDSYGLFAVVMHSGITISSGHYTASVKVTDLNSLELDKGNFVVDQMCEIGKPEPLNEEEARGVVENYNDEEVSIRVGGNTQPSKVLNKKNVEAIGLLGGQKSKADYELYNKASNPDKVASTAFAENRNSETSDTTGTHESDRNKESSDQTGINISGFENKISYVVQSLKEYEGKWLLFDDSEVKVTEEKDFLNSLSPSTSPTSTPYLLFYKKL

SMILES = Cc1cc(Nc2ccc(C(C)(C)C)c(F)c2)n2ncnc2n1; target = pyrD; test = enzyme activity, inhibitor, DCIP steady-state rate; IC50 = 0.35 ± 0.075 µM
SMILES = O=C(Nc1ccc(-c2nc3ccccc3[nH]2)cc1)c1cccc(Cl)c1; target = Moesin, with CD44 (Homo sapiens, UniProt P26038); test = MSN-CD44 binding, inhibitor, TR-FRET; IC50 = 6.3 µM
SMILES = C[C@]12CC[C@@H]3c4ccc(OS(=O)(=O)O)cc4CC[C@H]3[C@@H]1CCC2=O; target = Solute carrier family 22 member 11 (SLC22A11, Homo sapiens, UniProt Q9NSA0); test = transport, inhibitor; system = CHO expressing hOAT4; conditions = 5 min, added: 6-carboxyfluorescein 25 µM; IC50 = 1.61 ± 0.42 µM
SMILES = NC(=O)c1nnn(Cc2cc(Cl)c(C(=O)c3ccc(Cl)cc3)c(Cl)c2)c1N; target = Voltage-dependent L-type calcium channel subunit alpha-1C (CACNA1C, Homo sapiens, UniProt Q13936); test = calcium influx, blocker, calcium flux; conditions = 30 min, top concentration 10 µM; IC50 = 8.35 µM
SMILES = CC(C)C[C@H](NC(=O)[C@H](CCc1ccccc1)NC(=O)CN1CCOCC1)C(=O)N[C@@H](Cc1ccccc1)C(=O)N[C@@H](CC(C)C)C(=O)[C@@]1(C)CO1; target = Psmb7/Psmb3, β2 subunit (Mus musculus, UniProt P70195+Q9R1P1); test = proteasome activity, inhibitor; system = Ba/F3 p210; conditions = 1 h pulse; IC50 = 0.153 ± 0.0349 µM
SMILES = O=c1cc2oc3cc(O)c(-c4ccc(O)cc4O)cc3nc-2cc1-c1ccc(O)cc1O; target = SOD1 fully metallated; test = enzyme activity, inhibitor, XTT; IC50 = > 75 µM
SMILES = CCn1c(-c2nc3cc(C(=O)N4CCC[C@@H](N)C4)cc(OC)c3n2C)cc2cccnc21; target = PADI4; test = enzyme activity, ammonia release; conditions = added: BAEE substrate, 0.2 mM Ca2+; IC50 = 0.2 µM
SMILES = CCC[C@H](NC(=O)/C(C#N)=C/c1cccc(Br)n1)c1ccccc1; target = Ubiquitin carboxyl-terminal hydrolase 1 (USP1, Homo sapiens, UniProt O94782); test = enzyme activity, inhibitor, MALDI-TOF DUB; conditions = 35 min preincubation, 30 °C, added: UAF1 complex; IC50 = 2.16 µM
SMILES = CC(C)CCC[C@@H](C)[C@H]1CC[C@H]2[C@@H]3C[C@@H](NCCc4c[nH]cn4)[C@@]4(O)C[C@@H](O)CC[C@]4(C)[C@H]3CC[C@]12C; target = Epoxide hydrolase 1 (Ephx1, Rattus norvegicus, UniProt P07687); test = enzyme activity, inhibitor; IC50 = > 100 µM
SMILES = CC(C)C[C@H](NC(=O)c1cc(Cl)ccc1Cl)C(=O)N[C@@H](CC(C)C)C(=O)N[C@H](/C=C/S(C)(=O)=O)Cc1ccc(CN)cc1; target = Proteasome subunit beta type-9; test = competitive ABPP; system = Raji cell lysate; IC50 = > 10 µM
SMILES = COc1ccc(/C=C/C(=O)Nc2ccccc2C(=O)O)cc1OC; target = SOD1 fully metallated; test = enzyme activity, inhibitor, XTT; IC50 = > 75 µM
SMILES = CC1(C)CC[C@]2(C(=O)O)CC[C@]3(C)C(=CC[C@@H]4[C@@]5(C)C[C@@H](O)[C@H](OC(=O)/C=C/c6ccc(O)cc6)C(C)(C)[C@@H]5CC[C@]43C)[C@@H]2C1 (relative stereo); target = Presenilin-1, in γ-secretase complex (PSEN1, Homo sapiens, UniProt P49768); test = Aβ40 production, inhibitor, cell-free γ-secretase; system = HeLa membranes; conditions = added: APP-CTF substrate; IC50 = 1.17 µM
SMILES = Cc1ncc(C(=O)N[C@@H](CC(C)C)C(=O)N[C@@H](CC2CCCCC2)C(=O)N[C@H](/C=C/S(C)(=O)=O)Cc2ccc(CN)cc2)s1; target = Proteasome subunit beta type-9; test = competitive ABPP; system = Raji cell lysate; IC50 = > 10 µM
SMILES = COc1cc2nccc(Oc3ccc(NC(=O)c4cc5c(n(-c6ccccc6)c4=O)CCCC5=O)nc3)c2cc1OC; target = Tyrosine-protein kinase receptor TYRO3 (TYRO3, Homo sapiens, UniProt Q06418); test = cell viability, CellTiter-Glo; system = Ba/F3 expressing recombinant kinase; conditions = 48 h; IC50 = 0.0087 µM
SMILES = C[C@@H]1[C@H](O)[C@@H](C)/C=C/C=C/C=C/C=C/C=C/C=C/C=C/[C@H](O[C@@H]2O[C@H](C)[C@@H](O)[C@H](N)[C@@H]2O)C[C@@H]2O[C@](O)(C[C@@H](O)C[C@@H](O)[C@H](O)CC[C@@H](O)C[C@@H](O)CC(=O)O[C@H]1C)C[C@H](O)[C@H]2C(=O)O; target = Solute carrier organic anion transporter family member 1B3 (SLCO1B3, Homo sapiens, UniProt Q9NPD5); test = inhibitor; IC50 = 0.9 µM
SMILES = CCN(CC)c1cc(C)c2cc(NC(=O)/C=C/c3ccco3)ccc2n1; target = TP53-binding protein 1, tandem tudor domain (Homo sapiens, UniProt Q12888); test = dimethyl-lysine p53 peptide binding, inhibitor, TR-FRET displacement; IC50 = > 33 µM
SMILES = Fc1ccc(N2CCNCC2COc2ccccc2)cc1 (stereo not shown); target = P2RX4; test = calcium flux, inhibitor, Ca2+ flux; system = human cells; IC50 = 8.71 ± 1.39 µM
SMILES = Cc1cc(Nc2ccc(SC(F)(F)F)cc2)n2ncnc2n1; target = pyrD; test = enzyme activity, inhibitor, DCIP steady-state rate; IC50 = 0.52 ± 0.16 µM
SMILES = c1ccc2c(N3CCNCC3COc3ccc4c(c3)OCO4)cccc2c1 (stereo not shown); target = P2RX4; test = calcium flux, inhibitor, Ca2+ flux; system = human cells; IC50 = 7.08 ± 0.9 µM
SMILES = O=c1nc(SCc2cc(F)cc(C(F)(F)F)c2)nc(SCc2ccc3sccc3c2)[nH]1; target = DNA topoisomerase 2-alpha (TOP2A, Homo sapiens, UniProt P11388); test = ATPase activity, ATP-competitive inhibitor; conditions = added: ATP 0.75 mM; IC50 = 14 µM
SMILES = O=c1nc(N2CCN(CC3CCCCC3)CC2)sc2c([N+](=O)[O-])cc(C(F)(F)F)cc12; target = Cytochrome P450 2C9 (CYP2C9, Homo sapiens, UniProt P11712); conditions = 60 (unit not given), pH 7.4; IC50 = > 10 µM
SMILES = Cc1ncc(C(=O)N[C@@H](CC2CCC(C)CC2)C(=O)N[C@@H](CC(C)C)C(=O)N[C@H](/C=C/S(C)(=O)=O)Cc2ccc(CN)cc2)s1 (stereo partly shown); target = Proteasome subunit beta type-9; test = competitive ABPP; system = Raji cell lysate; IC50 = > 10 µM
SMILES = CN1CCN(CCCNc2ncc(Cl)c(-c3cc4c(C(=O)NC5CC5)cccc4s3)n2)CC1; target = Probable G-protein coupled receptor 34; test = antagonist, Tango; conditions = added: LysoPS 5 µM; IC50 = > 10 µM
SMILES = COc1ccccc1S(=O)(=O)N1CCNCC1COc1ccc2ccccc2c1 (stereo not shown); target = P2RX4; test = Ca2+ flux, antagonist; system = human cells expressing P2RX4; conditions = racemate tested; IC50 = > 10 µM
SMILES = CCn1c(-c2nc3ccc(C(=O)N4CCCC(N)C4)cc3n2C)cc2ccccc21 (stereo not shown); target = PADI4; test = binding, fluorescence polarisation; conditions = added: 10 nM tracer displacement, 0.2 mM Ca2+; IC50 = > 100 µM
SMILES = CN(C)CCCCC(=O)Nc1ccc(NC(=S)NC(=O)c2ccc(C(C)(C)C)cc2)cc1; target = Probable G-protein coupled receptor 34; test = antagonist, Tango; conditions = added: LysoPS 5 µM; IC50 = 4.46 ± 0.048 µM
SMILES = O=C(c1ccc(F)cc1)N1CCNCC1COc1ccc2c(c1)OCO2 (stereo not shown); target = P2RX4; test = Ca2+ flux, antagonist; system = human cells expressing P2RX4; conditions = racemate tested; IC50 = > 10 µM
SMILES = CN1CCN(c2ccc(Nc3ncc4cc(C#N)c(=O)n(C5CCCC5)c4n3)cc2)CC1; target = Serine/threonine-protein kinase SIK2 (SIK2, Homo sapiens, UniProt Q9H0K1); IC50 = 0.0816 µM
SMILES = CC#CC(=O)N[C@H]1CCCN(c2c(F)cc(C(N)=O)c3[nH]c(C)c(C)c23)C1; target = Proto-oncogene tyrosine-protein kinase Src (SRC, Homo sapiens, UniProt P12931); IC50 = 1.81 µM
SMILES = CC(C)C[C@H](NC(=O)[C@H](Cc1ccc(O)cc1)NC(=O)[C@@H](N)CCCNC(=N)N)C(=O)N1CCC[C@H]1C(=O)N[C@H](C(=O)O)[C@@H](C)O; target = rat aminopeptidase III; test = enzyme activity, inhibitor; IC50 = 0.8 µM
SMILES = C1=Cc2cccc3cccc1c23; target = Cytochrome P450 1B1 (CYP1B1, Homo sapiens, UniProt Q16678); IC50 = 12 µM
SMILES = COc1ccc(C[C@H](NC(=O)[C@H](C)NC(=O)CN2CCOCC2)C(=O)N[C@@H](CC2CCC(F)(F)CC2)C(=O)[C@@]2(C)CO2)cc1; target = Proteasome subunit beta type-9; test = competitive ABPP; system = Raji cell lysate; IC50 = > 10 µM
SMILES = COc1cc(C(=O)NS(=O)(=O)c2ccccc2C)ccc1Cc1cn(C)c2ccc(NC(=O)OC3CCCC3)cc12; target = LRRC8A/LRRC8C (Homo sapiens, UniProt Q8IWT6+Q8TDW0, M48D/T48D); test = ion current, inhibitor, whole-cell patch clamp; system = HCT116 LRRC8-/- transfected; conditions = at +100 mV; IC50 = 45.5 µM
SMILES = CC(C)(C)c1ccc(N2CCNCC2COc2ccc3c(c2)OCO3)cc1 (stereo not shown); target = P2RX4; test = calcium flux, inhibitor, Ca2+ flux; system = human cells; IC50 = 3.89 ± 0.93 µM
SMILES = Cc1ncc(C(=O)N[C@@H](CC(C)C)C(=O)N[C@@H](CCC2CCCCC2)C(=O)N[C@H](/C=C/S(C)(=O)=O)Cc2ccc(CN)cc2)s1; target = Proteasome subunit beta type-9; test = competitive ABPP; system = Raji cell lysate; IC50 = > 10 µM
SMILES = Cc1ccc(CNC(=O)CSCc2nc(-c3cccc(C)c3)oc2C)cc1; target = Probable G-protein coupled receptor 34; test = antagonist, Tango; conditions = added: LysoPS 5 µM; IC50 = > 10 µM
SMILES = Cc1nn(-c2nc3c(F)cc(F)cc3s2)c(O)c1C(c1ccccc1C(=O)O)c1c(C)nn(-c2nc3c(F)cc(F)cc3s2)c1O; target = Cyclic GMP-AMP synthase (CGAS, Homo sapiens, UniProt Q8N884); test = enzyme activity, pyrophosphatase-coupled; conditions = mean of 3 experiments; IC50 = 18.4 µM
